Published values from different studies.
± gives the spread as reported.
ADORA1: Adenosine receptor A1 (ADORA1, Homo sapiens, UniProt P30542)
UniProt P30542, sequence (whole entry, looked up): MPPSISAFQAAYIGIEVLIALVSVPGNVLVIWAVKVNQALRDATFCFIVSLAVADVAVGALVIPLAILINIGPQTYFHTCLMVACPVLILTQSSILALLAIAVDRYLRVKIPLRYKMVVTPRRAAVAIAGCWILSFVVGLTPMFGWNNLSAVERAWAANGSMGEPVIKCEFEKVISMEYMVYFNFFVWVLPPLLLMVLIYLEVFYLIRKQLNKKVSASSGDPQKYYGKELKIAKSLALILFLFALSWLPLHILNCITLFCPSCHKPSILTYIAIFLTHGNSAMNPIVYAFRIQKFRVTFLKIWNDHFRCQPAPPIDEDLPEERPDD
T1: pre-miR-21 RNA (Homo sapiens); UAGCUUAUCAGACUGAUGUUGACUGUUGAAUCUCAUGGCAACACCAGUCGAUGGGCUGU
T2: DNA aptamer, 5' T15 spacer; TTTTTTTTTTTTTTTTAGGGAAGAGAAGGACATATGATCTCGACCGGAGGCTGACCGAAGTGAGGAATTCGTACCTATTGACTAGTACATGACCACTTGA
UniProt P80075, sequence (whole entry, unmodified, looked up): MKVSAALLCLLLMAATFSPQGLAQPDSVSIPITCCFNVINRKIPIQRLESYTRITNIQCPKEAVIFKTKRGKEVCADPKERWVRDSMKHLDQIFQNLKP
UniProt P41968, sequence (whole entry, looked up): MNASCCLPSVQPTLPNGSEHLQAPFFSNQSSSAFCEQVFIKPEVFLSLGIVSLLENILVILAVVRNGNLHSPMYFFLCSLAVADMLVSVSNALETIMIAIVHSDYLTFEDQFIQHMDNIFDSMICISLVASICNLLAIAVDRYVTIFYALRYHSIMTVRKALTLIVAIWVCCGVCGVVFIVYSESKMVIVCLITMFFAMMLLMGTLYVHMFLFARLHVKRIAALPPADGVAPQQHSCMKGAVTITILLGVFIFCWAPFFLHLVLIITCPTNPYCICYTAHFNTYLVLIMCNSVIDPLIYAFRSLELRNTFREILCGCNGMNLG
UniProt P53779, sequence (whole entry, looked up): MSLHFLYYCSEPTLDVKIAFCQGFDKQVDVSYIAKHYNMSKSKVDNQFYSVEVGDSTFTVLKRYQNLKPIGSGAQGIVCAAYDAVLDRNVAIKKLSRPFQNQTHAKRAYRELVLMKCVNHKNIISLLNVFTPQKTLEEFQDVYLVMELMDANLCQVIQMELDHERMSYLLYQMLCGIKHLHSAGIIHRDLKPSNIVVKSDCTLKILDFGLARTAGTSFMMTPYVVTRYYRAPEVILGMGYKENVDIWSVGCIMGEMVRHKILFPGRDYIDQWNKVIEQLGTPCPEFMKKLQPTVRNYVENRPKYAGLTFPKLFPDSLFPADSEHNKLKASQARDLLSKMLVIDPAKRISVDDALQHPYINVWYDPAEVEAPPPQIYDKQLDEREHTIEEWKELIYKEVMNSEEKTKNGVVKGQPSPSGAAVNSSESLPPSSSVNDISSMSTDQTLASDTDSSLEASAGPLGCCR
UniProt P12643, sequence (whole entry, looked up): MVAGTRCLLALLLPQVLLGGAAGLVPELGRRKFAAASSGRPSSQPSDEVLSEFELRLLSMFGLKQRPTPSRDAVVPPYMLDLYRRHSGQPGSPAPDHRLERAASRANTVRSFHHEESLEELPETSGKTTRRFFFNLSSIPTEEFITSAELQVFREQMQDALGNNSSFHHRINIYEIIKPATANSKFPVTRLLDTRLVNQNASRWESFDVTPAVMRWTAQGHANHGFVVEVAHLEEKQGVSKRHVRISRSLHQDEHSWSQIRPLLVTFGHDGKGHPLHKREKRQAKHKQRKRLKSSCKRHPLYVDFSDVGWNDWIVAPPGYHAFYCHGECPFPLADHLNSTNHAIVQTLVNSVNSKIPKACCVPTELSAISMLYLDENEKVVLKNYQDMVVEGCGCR
UniProt Q16581, sequence (whole entry, looked up): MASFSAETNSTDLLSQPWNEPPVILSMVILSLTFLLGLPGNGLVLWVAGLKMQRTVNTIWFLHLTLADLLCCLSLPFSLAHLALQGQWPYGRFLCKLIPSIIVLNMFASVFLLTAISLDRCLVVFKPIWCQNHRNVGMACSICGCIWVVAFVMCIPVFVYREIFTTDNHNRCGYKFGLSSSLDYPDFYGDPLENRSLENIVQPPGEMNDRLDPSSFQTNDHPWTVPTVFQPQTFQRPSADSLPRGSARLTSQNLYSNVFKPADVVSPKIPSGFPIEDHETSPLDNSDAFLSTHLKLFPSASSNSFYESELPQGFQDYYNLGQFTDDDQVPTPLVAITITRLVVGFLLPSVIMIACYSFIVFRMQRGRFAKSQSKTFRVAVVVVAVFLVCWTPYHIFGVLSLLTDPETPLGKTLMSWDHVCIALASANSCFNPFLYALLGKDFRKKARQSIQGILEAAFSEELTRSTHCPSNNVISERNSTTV
UniProt P0DMS8, sequence (whole entry, looked up): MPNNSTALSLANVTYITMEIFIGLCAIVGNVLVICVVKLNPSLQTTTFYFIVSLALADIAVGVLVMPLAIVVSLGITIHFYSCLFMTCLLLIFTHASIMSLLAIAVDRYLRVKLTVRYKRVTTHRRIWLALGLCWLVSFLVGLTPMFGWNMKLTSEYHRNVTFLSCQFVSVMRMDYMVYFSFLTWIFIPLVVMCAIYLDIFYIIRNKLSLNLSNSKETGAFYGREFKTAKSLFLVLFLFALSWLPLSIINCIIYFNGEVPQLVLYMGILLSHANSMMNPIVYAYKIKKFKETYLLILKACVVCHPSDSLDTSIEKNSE
UniProt Q92731, sequence (whole entry, looked up): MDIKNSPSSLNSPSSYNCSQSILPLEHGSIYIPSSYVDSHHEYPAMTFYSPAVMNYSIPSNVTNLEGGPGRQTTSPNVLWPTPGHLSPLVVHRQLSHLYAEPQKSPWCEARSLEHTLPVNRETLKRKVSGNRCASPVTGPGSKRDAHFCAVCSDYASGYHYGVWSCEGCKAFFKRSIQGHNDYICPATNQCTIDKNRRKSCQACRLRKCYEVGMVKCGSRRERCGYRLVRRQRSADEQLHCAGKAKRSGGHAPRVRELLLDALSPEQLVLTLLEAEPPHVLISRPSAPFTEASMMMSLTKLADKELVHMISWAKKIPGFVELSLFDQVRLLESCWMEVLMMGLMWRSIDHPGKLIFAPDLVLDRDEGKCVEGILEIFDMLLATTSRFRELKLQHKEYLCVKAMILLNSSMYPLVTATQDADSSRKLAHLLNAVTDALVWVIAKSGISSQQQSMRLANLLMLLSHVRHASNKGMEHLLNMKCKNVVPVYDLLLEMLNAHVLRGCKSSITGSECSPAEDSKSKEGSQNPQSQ
UniProt P08912, sequence (whole entry, looked up): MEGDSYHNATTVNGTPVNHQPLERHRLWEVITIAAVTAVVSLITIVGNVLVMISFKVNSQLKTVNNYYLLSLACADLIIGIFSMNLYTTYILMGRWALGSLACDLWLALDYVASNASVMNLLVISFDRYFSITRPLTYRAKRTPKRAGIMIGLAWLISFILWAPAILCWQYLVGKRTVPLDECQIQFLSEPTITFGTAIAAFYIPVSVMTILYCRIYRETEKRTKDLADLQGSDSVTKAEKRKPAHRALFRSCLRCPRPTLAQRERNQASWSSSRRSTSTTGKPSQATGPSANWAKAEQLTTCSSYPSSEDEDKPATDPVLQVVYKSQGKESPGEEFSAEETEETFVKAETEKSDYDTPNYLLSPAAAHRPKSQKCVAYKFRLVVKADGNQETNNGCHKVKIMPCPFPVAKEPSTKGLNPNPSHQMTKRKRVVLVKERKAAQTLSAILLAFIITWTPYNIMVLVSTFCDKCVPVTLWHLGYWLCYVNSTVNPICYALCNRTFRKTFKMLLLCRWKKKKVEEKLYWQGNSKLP
UniProt P30958, sequence (whole entry, looked up): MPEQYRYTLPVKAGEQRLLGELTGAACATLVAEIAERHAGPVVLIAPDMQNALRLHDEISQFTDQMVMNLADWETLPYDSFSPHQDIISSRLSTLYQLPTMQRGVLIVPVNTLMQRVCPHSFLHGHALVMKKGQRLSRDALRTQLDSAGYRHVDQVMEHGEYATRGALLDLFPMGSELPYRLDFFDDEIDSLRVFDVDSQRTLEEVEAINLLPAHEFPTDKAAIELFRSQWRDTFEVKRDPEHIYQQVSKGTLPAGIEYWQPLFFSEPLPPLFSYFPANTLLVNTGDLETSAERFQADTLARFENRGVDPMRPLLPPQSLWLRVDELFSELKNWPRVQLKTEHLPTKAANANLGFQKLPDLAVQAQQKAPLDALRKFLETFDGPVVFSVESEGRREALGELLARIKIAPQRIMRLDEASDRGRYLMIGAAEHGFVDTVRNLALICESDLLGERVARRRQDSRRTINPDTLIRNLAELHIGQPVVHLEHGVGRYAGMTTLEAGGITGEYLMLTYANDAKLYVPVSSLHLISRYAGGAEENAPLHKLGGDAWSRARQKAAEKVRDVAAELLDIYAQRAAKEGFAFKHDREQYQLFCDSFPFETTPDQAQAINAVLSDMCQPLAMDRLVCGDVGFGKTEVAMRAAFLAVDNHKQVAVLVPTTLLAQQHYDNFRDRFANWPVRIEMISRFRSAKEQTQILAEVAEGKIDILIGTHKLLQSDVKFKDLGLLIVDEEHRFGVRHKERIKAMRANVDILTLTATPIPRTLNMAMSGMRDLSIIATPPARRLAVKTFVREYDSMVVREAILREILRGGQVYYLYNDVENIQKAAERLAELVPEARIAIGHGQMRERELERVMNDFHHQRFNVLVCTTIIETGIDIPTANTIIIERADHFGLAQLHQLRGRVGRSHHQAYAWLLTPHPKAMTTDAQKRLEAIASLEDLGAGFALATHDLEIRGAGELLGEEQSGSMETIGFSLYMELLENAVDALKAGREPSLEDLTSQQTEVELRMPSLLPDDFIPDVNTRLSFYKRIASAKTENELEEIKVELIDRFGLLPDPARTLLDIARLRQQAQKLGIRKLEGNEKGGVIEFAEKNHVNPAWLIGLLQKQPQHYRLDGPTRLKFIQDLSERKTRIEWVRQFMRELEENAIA
UniProt Q12908, sequence (whole entry, looked up): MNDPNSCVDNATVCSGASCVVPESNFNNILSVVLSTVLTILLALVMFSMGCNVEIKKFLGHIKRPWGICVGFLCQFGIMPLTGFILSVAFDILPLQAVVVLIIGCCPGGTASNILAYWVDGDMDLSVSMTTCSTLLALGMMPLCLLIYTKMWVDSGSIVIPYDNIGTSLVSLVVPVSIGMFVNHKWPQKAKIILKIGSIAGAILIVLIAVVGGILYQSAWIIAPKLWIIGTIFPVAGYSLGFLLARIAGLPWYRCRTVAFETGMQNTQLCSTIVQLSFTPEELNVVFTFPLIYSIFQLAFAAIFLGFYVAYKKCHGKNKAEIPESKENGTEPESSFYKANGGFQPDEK

Compound = NC1CC=C(c2cc3c(Nc4cc5ncsc5cc4F)ncnc3s2)CC1 (stereo not shown); target = RIPK1 (Homo sapiens, UniProt Q13546); assay = kinase activity; conditions = 1 µM; how to read = reference: control; endpoint = remaining activity; value = 110 ± 5%
Compound = CCCCCCOc1ccc(C(=O)OCCN2CC=CCC2)cc1; target = CHRM5 (Homo sapiens, UniProt P08912); assay = recovery of [3H]NMS binding after washing; test system = membranes; conditions = 100 µM; endpoint = dissociation half-time; value = 2.6 ± 0.3 h
Compound = O=C(CSC(=S)N1CCCCCC1)Nc1cccc2c1C(=O)c1ccccc1C2=O; target = FGR (Homo sapiens, UniProt P09769); assay = RTK phosphorylation array; test system = A549; conditions = concentration not given; how to read = reference: control; endpoint = phosphorylation decrease; value = 2.8 fold
Compound = CC(CCC(=O)NC(CCC(=O)Nc1ccc(Br)nc1)C(=O)O)C1CCC2C3C(O)CC4CC(O)CCC4(C)C3CCC12C (stereo not shown); target = SLC10A2 (Homo sapiens, UniProt Q12908); assay = transport efficiency, substrate, LC-MS/MS; test system = ASBT-MDCK; endpoint = normalized Jmax/Kt; value = 0.0415 µM⁻¹
Compound = CN1CCN(c2ccc(-c3ccc4[nH]c(-c5ccc(OCCCC(=O)N6CCN(c7nncc8sccc78)CC6)cc5)nc4c3)cc2)CC1; target = T1, pre-miR-21 RNA (Homo sapiens); assay = RNase L cleavage, competitor, RNase L cleavage assay; conditions = with: RIBOTAC TGP-21-C1-3; endpoint = IC50; value = 13 µM
Compound = C[C@]12CC[C@@H]3c4ccc(O)cc4C(=NOCC(=O)O)C[C@H]3[C@@H]1CC[C@@H]2O; target = T2, DNA aptamer, 5' T15 spacer; assay = bead-ELAA; conditions = NaCl 100 mM; endpoint = Kd; value = 0.00912 µM
Compound = CC(C)[C@H](NC(=O)[C@@H]1CCCN1C(=O)[C@H](CCCCN)NC(=O)[C@H](Cc1ccccc1)NC(=O)[C@H](Cc1ccccc1)NC(=O)[C@H](CC(=O)O)NC(=O)[C@H](CCC(=O)O)NC(=O)[C@H](Cc1ccc(O)cc1)NC(=O)[C@H](CC(=O)O)NC(=O)[C@H](CCC(=O)O)NC(=O)[C@H](CC(=O)O)NC(=O)[C@H](CCC(=O)O)NC(=O)[C@@H](N)Cc1ccc(O)cc1)C(=O)N[C@H](C(=O)N[C@@H](CSSC[C@H](NC(=O)[C@@H](NC(=O)[C@@H](NC(=O)[C@@H]1CCCN1C(=O)[C@H](CCCCN)NC(=O)[C@H](Cc1ccccc1)NC(=O)[C@H](Cc1ccccc1)NC(=O)[C@H](CC(=O)O)NC(=O)[C@H](CCC(=O)O)NC(=O)[C@H](Cc1ccc(O)cc1)NC(=O)[C@H](CC(=O)O)NC(=O)[C@H](CCC(=O)O)NC(=O)[C@H](CC(=O)O)NC(=O)[C@H](CCC(=O)O)NC(=O)[C@@H](N)Cc1ccc(O)cc1)C(C)C)[C@@H](C)O)C(=O)N[C@@H](Cc1ccc(O)cc1)C(=O)N[C@@H](Cc1ccccc1)C(N)=O)C(=O)N[C@@H](Cc1ccc(O)cc1)C(=O)N[C@@H](Cc1ccccc1)C(N)=O)[C@@H](C)O; target = C-C motif chemokine 8 (CCL8, Homo sapiens, UniProt P80075); assay = isothermal titration calorimetry; conditions = concentration not given; endpoint = binding entropy ΔS; value = 33.3 J/mol/K
Compound = N=C(N)NCCC[C@H](NC(=O)[C@H](CC(=O)O)NC(=O)[C@@H]1CSCC(=O)NCC(=O)N[C@@H](Cc2c[nH]cn2)C(=O)N[C@H](Cc2ccccc2)C(=O)N[C@@H](CCCNC(=N)N)C(=O)N[C@H](Cc2c[nH]c3ccccc23)C(=O)N1)C(=O)N[C@@H](Cc1ccccc1)C(=O)NCC(N)=O; target = MC3R (Homo sapiens, UniProt P41968); assay = cAMP accumulation; test system = HEK293 expressing MC3R; conditions = concentration not given; endpoint = functional activity; value = inactive
Compound = [C-]#[O+].[C-]#[O+].[C-]#[O+].[C-]#[O+].[C-]#[O+].[C-]#[O+].[Cl-].[Cl-].[Re+].[Re+].c1cnc(-c2ncccn2)nc1; target = Albumin (ALB, Homo sapiens, UniProt P02768); assay = tryptophan fluorescence quenching; endpoint = Stern-Volmer constant; value = 449000 M⁻¹
Compound = O=C1C[C@@H](c2ccc(O)c(-c3c(O)cc(O)c4c3O[C@H](c3ccc(O)cc3)CC4=O)c2)Oc2cc(O)cc(O)c21; target = PRXC1A (Armoracia rusticana, UniProt P00433); assay = oxidation, substrate; endpoint = Vmax; value = 2.49 ± 0.8 µmol/min/mg
Compound = c1ccc(N=NC(=NNc2ccccn2)c2ccccc2)cc1; target = Cu(II) and Zn(II); assay = metal coordination test; conditions = concentration not given; endpoint = metal binding; value = binds
Compound = C[C@@H](N)[C@H]1CC[C@H](C(=O)Nc2ccncc2)CC1; target = PRKCD (Homo sapiens, UniProt Q05655); assay = enzyme activity, inhibitor, radiometric; conditions = 10 µM; endpoint = activity vs control; value = < 10%
Compound = CN(C)CCCCOc1ccc2cc(CN)ccc2c1; target = Primary amine oxidase, liver isozyme (Bos taurus, UniProt Q29437); assay = substrate, fluorescence; conditions = pH 7.2, 30 °C; endpoint = Km; value = 0.078 ± 0.0085 µM
Compound = COC(C(=O)N1Cc2c(-c3ccc(C(=O)N4CCCc5ccccc54)cc3)cnn2CC1C(C)C)c1cnn(C)c1 (stereo not shown); target = PRKN (Human, UniProt O60260); assay = enzyme activity, in organello ubiquitination; conditions = 10 µM, with: with or without CCCP; endpoint = Mfn2 ubiquitination; value = no effect
Compound = C=CCCCCCCO[C@H]1O[C@H](CO)[C@H](O)[C@H](O[C@@H]2O[C@H](CO)[C@H](O)[C@H](O)[C@H]2O[C@@H]2O[C@@H](C)[C@@H](O)[C@@H](O)[C@@H]2O)[C@H]1NC(C)=O; target = ABO (Homo sapiens, UniProt P16442, G235S/G268A/L266M/R176G); assay = methyl-TROSY NMR titration lineshape analysis; conditions = apo enzyme; endpoint = koff; value = 700 ± 100 s⁻¹
Compound = CC(C)c1ccc(C(=O)Nc2ccc(CN)cc2)c(O)c1; target = human TMPRSS2 and HAT; assay = jump dilution; conditions = concentration not given, 15 min preincubation, 1/100 dilution; endpoint = activity recovered after dilution; value = > 80%
Compound = CC(=O)[C@]12NC(C)(C)C[C@@]1(C)C(=O)C1=C2c2c(c3c4n2C(C)(C)CC2=C4[C@@]4(CC(C)(C)N[C@@](C)(C4)C2=O)CC3(C)C)C(=O)C(C)(C)N1 (racemic); target = OPRM1 (Homo sapiens, UniProt P35372); assay = cAMP level, agonist, LANCE Ultra cAMP; test system = CHO cells; conditions = concentration not given; endpoint = activity; value = inactive
Compound = CC(C)C[C@H](NC(=O)[C@@H](N)[C@@H](C)O)C(=O)N[C@@H](CCC(N)=O)C(=O)N1CCC[C@H]1C(=O)N1CCC[C@H]1C(=O)N[C@@H](C)C(=O)N[C@@H](CO)C(=O)N[C@@H](CO)C(=O)N[C@@H](CCCNC(=N)N)C(=O)N[C@@H](CCCNC(=N)N)C(=O)N[C@@H](CCCNC(=N)N)C(=O)N[C@@H](Cc1c[nH]cn1)C(=O)N[C@@H](Cc1ccccc1)C(=O)N[C@@H](Cc1c[nH]cn1)C(=O)N[C@@H](Cc1c[nH]cn1)C(=O)N[C@@H](C)C(=O)N[C@@H](CC(C)C)C(=O)N1CCC[C@H]1C(=O)N1CCC[C@H]1C(=O)N[C@@H](C)C(=O)N[C@@H](CCCNC(=N)N)C(=O)O; target = C3AR1 (Homo sapiens, UniProt Q16581); assay = β-arrestin recruitment, agonist, BRET; endpoint = Emax; value = 46%
Compound = CN(C)S(=O)(=O)c1ccc(S(=O)(=O)N2CCC(n3c(=O)[nH]c4ccccc43)CC2)cc1; target = mfd (Escherichia coli, UniProt P30958); assay = ITC; conditions = concentration not given, with: ATP; how to read = reference: ATP Ka with over without; endpoint = affinity ratio; value = 0.34
Compound = OC[C@H]1O[C@@H](n2cnc3c(Nc4cccc(Br)c4)ncnc32)[C@H](O)[C@@H]1O; target = ADORA3 (Homo sapiens, UniProt P0DMS8); assay = kinetic radioligand binding; conditions = 10 °C, no GTP, with: [3H]PSB-11; endpoint = kon; value = 88000 ± 14000 M⁻¹ s⁻¹
Compound = CC(=O)N[C@@H]1[C@@H](O[C@@H]2O[C@H](C(=O)O)[C@@H](O[C@@H]3O[C@H](COS(=O)(=O)O)[C@@H](OS(=O)(=O)O)[C@H](O[C@@H]4O[C@H](C(=O)O)[C@@H](OS(=O)(=O)O)[C@H](OS(=O)(=O)O)[C@H]4OS(=O)(=O)O)[C@H]3NC(C)=O)[C@H](OS(=O)(=O)O)[C@H]2OS(=O)(=O)O)[C@H](OS(=O)(=O)O)[C@@H](COS(=O)(=O)O)O[C@H]1SCCOCCOCCSSCCOCCOCCS[C@@H]1O[C@H](COS(=O)(=O)O)[C@@H](OS(=O)(=O)O)[C@H](O[C@@H]2O[C@H](C(=O)O)[C@@H](O[C@@H]3O[C@H](COS(=O)(=O)O)[C@@H](OS(=O)(=O)O)[C@H](O[C@@H]4O[C@H](C(=O)O)[C@@H](OS(=O)(=O)O)[C@H](OS(=O)(=O)O)[C@H]4OS(=O)(=O)O)[C@H]3NC(C)=O)[C@H](OS(=O)(=O)O)[C@H]2OS(=O)(=O)O)[C@H]1NC(C)=O; target = Bone morphogenetic protein 2 (Homo sapiens, UniProt P12643); assay = FP competition; how to read = reference: cpd over monovalent azide analogue, higher = stronger binding; endpoint = binding affinity ratio; value = 59 fold
Compound = CCNC(=O)[C@H]1O[C@@H](n2cnc3c(NCCCCCCCCCCCNS(=O)(=O)c4cccc5c(N(C)C)cccc45)ncnc32)[C@H](O)[C@@H]1O; target = ADORA1; assay = CRE reporter gene; test system = CHO-A1; conditions = Gi response, with: forskolin; endpoint = log Kd minus log IC50; value = 2.25
Compound = CCC(=C(c1ccc(Cl)cc1)c1ccc(OCCCN(C)C)cc1)c1ccccc1; target = Estrogen receptor (ESR1, Homo sapiens, UniProt P03372); assay = reporter gene, agonist, yeast estrogen screen; conditions = 1 µM; how to read = reference: DMSO; endpoint = fold activation; value = 2.2 ± 0.14 fold
Compound = CCC(=C(c1ccc(O)cc1)c1ccc(OCCN(C)CCOCCOCCOCCOCCOCCOCCOCCOCCOCCOCCOCCN(C)CCOc2ccc(C(=C(CC)c3ccccc3)c3ccc(O)cc3)cc2)cc1)c1ccccc1 (mixture of isomers); target = ESR2 (Homo sapiens, UniProt Q92731); conditions = concentration not given, Z-Z:Z-E:E-E 1:2:1, with: [3H]-estradiol; how to read = reference: estradiol; endpoint = relative binding affinity; value = 9.75 ± 0.57%
Compound = C=C1C(=O)O[C@@H]2[C@H]3C(CO)=CC(=O)C3=C(C)C[C@H](O)[C@@H]12; target = MAL12 (Saccharomyces cerevisiae S288c, UniProt P53341); assay = fluorescence quenching; conditions = 310 K; endpoint = Stern-Volmer constant; value = 3890 M⁻¹
Compound = COc1cccc(-c2c(C#N)c(N)nc(SCc3ncc[nH]3)c2C#N)c1; target = ADORA1; assay = cAMP, agonist; endpoint = Emax; value = 23%
Compound = CNS(=O)(=O)Nc1nccc(Cc2c(C)c3ccc(Oc4ncccc4F)cc3oc2=O)c1F; target = MAPK10 (Homo sapiens, UniProt P53779); assay = cell-free assay, competition with immobilised ligand; conditions = 1 µM; endpoint = remaining binding; value = 17%
Compound = CC(C)=CCc1c(O)cc(O)c2c1O[C@H](c1ccccc1)[C@@H](O)C2=O; target = PTPN1 (Homo sapiens, UniProt P18031); assay = fluorescence quenching; conditions = concentration not given; endpoint = binding site number; value = 0.99

Excerpt of the above:
Compound = O=C(CSC(=S)N1CCCCCC1)Nc1cccc2c1C(=O)c1ccccc1C2=O; target = FGR (Homo sapiens, UniProt P09769); assay = RTK phosphorylation array; test system = A549; conditions = concentration not given; how to read = reference: control; endpoint = phosphorylation decrease; value = 2.8 fold
Compound = CC(CCC(=O)NC(CCC(=O)Nc1ccc(Br)nc1)C(=O)O)C1CCC2C3C(O)CC4CC(O)CCC4(C)C3CCC12C (stereo not shown); target = SLC10A2 (Homo sapiens, UniProt Q12908); assay = transport efficiency, substrate, LC-MS/MS; test system = ASBT-MDCK; endpoint = normalized Jmax/Kt; value = 0.0415 µM⁻¹
Compound = CN1CCN(c2ccc(-c3ccc4[nH]c(-c5ccc(OCCCC(=O)N6CCN(c7nncc8sccc78)CC6)cc5)nc4c3)cc2)CC1; target = T1, pre-miR-21 RNA (Homo sapiens); assay = RNase L cleavage, competitor, RNase L cleavage assay; conditions = with: RIBOTAC TGP-21-C1-3; endpoint = IC50; value = 13 µM
Compound = C[C@]12CC[C@@H]3c4ccc(O)cc4C(=NOCC(=O)O)C[C@H]3[C@@H]1CC[C@@H]2O; target = T2, DNA aptamer, 5' T15 spacer; assay = bead-ELAA; conditions = NaCl 100 mM; endpoint = Kd; value = 0.00912 µM
